# Experimental data pooled from the literature.
# Each numbered part is a random draw from the data of one study; scales do not carry over between parts.

# Sample 1 — read-out: enzyme activity; tested at: 20 µM; setting: with DTT
# Target: Replicase polyprotein 1ab, main protease (rep, Severe acute respiratory syndrome coronavirus 2, UniProt P0DTD1)
Structure (SMILES),inhibition [%]
NC(=S)N/N=C/c1coc2ccccc2c1=O,2.3
CC[C@H](CO)Nc1nc(NCc2ccc(-c3ccccn3)cc2)c2ncn(C(C)C)c2n1,1.6
O=C(O)/C(S)=C/c1ccc(I)cc1,-14.6
O=C1C=CC(=O)C2=C1C1c3ccccc3C2c2ccccc21,-14.3

# Sample 2 — method: RNA Bind-n-Seq; form: RNA; matrix: in vitro; tested at: 100 nM; baseline: input RNA pool; reading: higher = stronger binding
# Target: RING finger protein unkempt homolog, zinc fingers 1-6, SBP tag (UNK, Homo sapiens, UniProt Q9C0B0, residues 30-357)
# Chain of UniProt Q9C0B0 (30-357, looked up): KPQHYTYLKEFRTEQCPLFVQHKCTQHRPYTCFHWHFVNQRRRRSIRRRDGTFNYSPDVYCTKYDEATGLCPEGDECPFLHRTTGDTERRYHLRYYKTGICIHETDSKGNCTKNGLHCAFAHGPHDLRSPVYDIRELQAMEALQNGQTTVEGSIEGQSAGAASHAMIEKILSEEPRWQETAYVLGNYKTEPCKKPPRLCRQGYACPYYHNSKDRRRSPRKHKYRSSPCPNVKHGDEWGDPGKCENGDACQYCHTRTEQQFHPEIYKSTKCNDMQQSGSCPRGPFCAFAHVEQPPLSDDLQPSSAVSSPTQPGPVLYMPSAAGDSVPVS
# Setting: RNA with constant flanks, vertebrate orthologous sites, ends assumed
Sequence,bound/input enrichment
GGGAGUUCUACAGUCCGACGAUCAAAUUUUUAAAGUUUUUUAAUUUAUUUUUUUCUGUUGGGGGUAAAGUUCGCGCUACCAAAUAGUGAUCGUAACAAAUUGAUCUGUUAUGGAUGUUGCUAUAGUGACAUGCAAUUAUAUCUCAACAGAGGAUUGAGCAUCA,0.999 ratio
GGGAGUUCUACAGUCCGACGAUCGUCCUGAGUUUUUAAAAGUCCUUAUAUUUUUCUUUUUUCCUUUUUUUGGGGGGGGGUGGGGGAUAUGUAGUAAUAUUAGCAUAAAGAUUUUAAUUUGGGCAACUUUGAUUCCUAAGAGAACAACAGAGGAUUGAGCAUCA,4.87 ratio
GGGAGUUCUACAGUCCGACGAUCGUUGUGACCCAUUUAACAUACACAAAAAAUUAGCCAAAAAAAAUUUGCAUGUAAUUGACUUAGAUGAUGCCACUUUUCUGAGUGCAAAAUUUGGCAGGCAGCUUGUACCUGGUUGGAAGCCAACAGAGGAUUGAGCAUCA,1.27 ratio
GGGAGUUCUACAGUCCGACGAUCUGGACCUUGGAGCUGAACUGGGCUGGGGGACUAGAAAAGUAAAAUAAACUUGUAAAAUGAUAGCCAUACGCAGCUGCACAAUAGUACUAUCACAGGCACCUGUGUUAAUGUAUUUAUACACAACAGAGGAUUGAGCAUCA,0.576 ratio
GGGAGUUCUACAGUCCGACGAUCCUGUGAACAACUCAGGGCAGUAUCCCCCAUACUCUCCGUACAGCAACCUCAAUCAGGGAUUAGUAAACAAUACAGGGAUGAGUCCCAACAUGAGCCUUACCAGCAGCAGUGCCCCUAUGACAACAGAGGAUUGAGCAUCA,0.582 ratio
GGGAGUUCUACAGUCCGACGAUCGAUGCAGUGUAUAAAUUAUCCAAGGCAGUGACUUCAGCUUUAUAUAUAUAUAUAUAUAUAUAGUUAGUUUUAAAAUCAUCUACUUUUAUUUAAACUUCUAGAUUGGAUUGUUUGCUAUUGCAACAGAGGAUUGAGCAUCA,1.77 ratio
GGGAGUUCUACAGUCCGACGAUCAUCAUAGCAAAAGAGCCAAGCAGUAGCAUUAGUGGUUUUUUUUUUUUGUAAAUGUAAAAUUAGAUCCAGACUUUGUUUCCUUACUCAAUUUUAAAAAUAAAAAAAAUACCUCAGUGCUAUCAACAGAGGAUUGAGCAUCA,0.495 ratio
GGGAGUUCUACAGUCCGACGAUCCAGGGAUGGCCCCAAUCCCACCUCUGUUUAUUCUGUAAACUACAACCUGUAAAUAACAUUUAGCAUUCCUAUUGUAACAAAAUUAAUUUUUAUGAAAUAAAUUAUAUUUCCUAGUCUAAUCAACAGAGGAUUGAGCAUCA,1.3 ratio

# Sample 3 — method: RNAcompete; form: RNA; matrix: in vitro; tested at: 20 nM; setting: 7-mer, probes averaged, single round; baseline: mean of 7-mers; reading: higher = stronger binding
# Target: PABPC1L2, full length, GST fusion (mouse, UniProt A0ABA7IW68)
# Construct (chain): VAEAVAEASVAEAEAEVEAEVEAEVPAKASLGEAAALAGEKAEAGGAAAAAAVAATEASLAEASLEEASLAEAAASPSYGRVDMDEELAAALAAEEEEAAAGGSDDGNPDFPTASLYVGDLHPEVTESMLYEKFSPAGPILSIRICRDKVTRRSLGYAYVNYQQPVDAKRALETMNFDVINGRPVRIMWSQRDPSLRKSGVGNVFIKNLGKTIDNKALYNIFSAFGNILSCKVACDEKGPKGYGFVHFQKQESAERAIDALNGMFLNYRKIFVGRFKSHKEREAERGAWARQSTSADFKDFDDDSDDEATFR
Sequence,7-mer Z-score
GUCCCUC,-0.304
UUAUAAA,1.23
GUGACAA,0.238
CGUAUGC,-0.302
AAUUUGC,-0.0047
ACCAACA,0.095
GAAGAUC,0.129
AACGUCU,-0.253

# Sample 4 — action: inhibitor; tested at: 20 µM
# Target: Replicase polyprotein 1ab, nsp13 helicase (rep, Severe acute respiratory syndrome coronavirus 2, UniProt P0DTD1)
SMILES,inhibition [%]
NCCNc1ccc(NCCN)c2c1C(=O)c1ccncc1C2=O,92.3
CNC(=O)c1c(F)cccc1Nc1nc(Nc2cc3c(ccn3C(=O)CN(C)C)cc2OC)nc2[nH]ccc12,14.9
COc1cc(Nc2ncc3c(n2)-c2ccc(Cl)cc2C(c2c(F)cccc2OC)=NC3)ccc1C(=O)O,11.7
O=S(=O)(Oc1ccc(Cl)cc1)c1ccc(Cl)cc1,4.92
O=C(/C=C/c1c(C(=O)O)[nH]c2cc(Cl)cc(Cl)c12)Nc1ccccc1,7.34
CC(C)C[C@H](NC(=O)[C@H](CCCCN)NC(=O)[C@H](CCCNC(=N)N)NC(=O)[C@H](C)NC(=O)[C@H](CO)NC(=O)[C@H](CCCCN)NC(=O)[C@H](CCCNC(=N)N)NC(=O)[C@H](C)NC(=O)CNC(=O)[C@@H](NC(=O)[C@H](Cc1ccccc1)NC(=O)CNC(=O)CNC(=O)[C@@H](N)Cc1ccccc1)[C@@H](C)O)C(=O)N[C@@H](C)C(=O)N[C@@H](CC(N)=O)C(=O)N[C@@H](CCC(N)=O)C(=O)O,2.05
O=C(CCCCCCCC(=O)NCCO)NCCO,0
Cc1c(C(=O)NN2CCOCC2)nn(-c2ccc(Cl)cc2Cl)c1-c1ccc(I)cc1,6.76
c1ccc2[nH]c(-c3cscn3)nc2c1,0.13
COc1ccccc1N1CCN(CCCCNC(=O)c2ccc(-c3ccc(C(C)=O)cc3)cc2)CC1,8.13
COc1ccncc1C(=O)NC(=O)Nc1ccc(-c2ccccc2)c(C(F)(F)F)c1,1.73
C[N+]1([O-])[C@@H]2C[C@@H](OC(=O)[C@H](CO)c3ccccc3)C[C@H]1[C@@H]1O[C@@H]12 (some centres unmarked),6.36
CCN1CCC(n2cc(CNc3cc(Cl)c4ncc(C#N)c(Nc5ccc(F)c(Cl)c5)c4c3)nn2)CC1,8.91
COc1cc(N2CCOCC2)ccc1Nc1ncc(Cl)c(Nc2ccccc2NS(C)(=O)=O)n1,8.18
O=C(NCc1ccc(OC(F)(F)F)cc1)C1c2ccccc2C(=O)N1C1CCOCC1 (centres unmarked),13.5
Oc1ccc(OC2CCCCO2)cc1 (centres unmarked),10.1
CC(C)(C)c1ccc(S(=O)(=O)NCc2ccc(C(=O)Nc3cccnc3)cc2)cc1,13.8
Nc1nc2cc(-c3ccc4ncc(C(=O)N5CCOCC5)n4c3)ccc2o1,0.82
CNCc1ccc(C)c(NC(=O)c2ccc(Nc3nc(-c4ccccc4)c4ccccc4n3)cc2)c1,12.1
CC(C)[C@H](N)C(=O)OCCOCn1cnc2c(=O)nc(N)[nH]c21,2.13
CC(C)NNC(=O)c1ccncc1,4.06
COc1cc(C#N)ccc1S(=O)(=O)Nc1ccc2c(c1)cc(C)c(=O)n2C,0.72
N[C@@H]1CCN(c2cccnc2)C1,-7.36
O=C(O)c1ccc(OCCn2ccnc2)cc1,0.93
Cc1cc(C(C)(C)C)cc(C)c1CC1=NCCN1,-6.71

# Sample 5 — cell line: HEK-293T/ACE2; tested at: 10 µM; time: 16 h; baseline: vehicle
SMILES,viability
O=C(C1CCCCC1)N1CC(=O)N2CCc3ccccc3C2C1 (centres unmarked),100%
O=c1[nH]c2ccccc2n1C1CCN(CCCC(c2ccc(F)cc2)c2ccc(F)cc2)CC1,104%
CO[C@H]1/C=C/O[C@@]2(C)Oc3c(C)c(O)c4c(O)c(c(/C=N/N5CCN(C)CC5)c(O)c4c3C2=O)NC(=O)/C(C)=C\C=C\[C@H](C)[C@H](O)[C@@H](C)[C@@H](O)[C@@H](C)[C@H](OC(C)=O)[C@@H]1C,100%
Cc1noc(NS(=O)(=O)c2ccc(N)cc2)c1C,99.5%
NC(=O)c1ncn([C@@H]2O[C@H](CO)[C@@H](O)[C@H]2O)n1,98.3%

# Excerpt of the above (sample 4):
SMILES,inhibition [%]
CC(C)C[C@H](NC(=O)[C@H](CCCCN)NC(=O)[C@H](CCCNC(=N)N)NC(=O)[C@H](C)NC(=O)[C@H](CO)NC(=O)[C@H](CCCCN)NC(=O)[C@H](CCCNC(=N)N)NC(=O)[C@H](C)NC(=O)CNC(=O)[C@@H](NC(=O)[C@H](Cc1ccccc1)NC(=O)CNC(=O)CNC(=O)[C@@H](N)Cc1ccccc1)[C@@H](C)O)C(=O)N[C@@H](C)C(=O)N[C@@H](CC(N)=O)C(=O)N[C@@H](CCC(N)=O)C(=O)O,2.05
O=C(CCCCCCCC(=O)NCCO)NCCO,0
Cc1cc(C(C)(C)C)cc(C)c1CC1=NCCN1,-6.71
CC(C)(C)c1ccc(S(=O)(=O)NCc2ccc(C(=O)Nc3cccnc3)cc2)cc1,13.8
